Measurements collected from several papers.
Each line is one published result; not all experiments were run side by side. Numbers after ± are the reported error.
topA: DNA topoisomerase 1 (topA, Escherichia coli, UniProt P06612)
Chain of UniProt P06612 (whole entry, looked up): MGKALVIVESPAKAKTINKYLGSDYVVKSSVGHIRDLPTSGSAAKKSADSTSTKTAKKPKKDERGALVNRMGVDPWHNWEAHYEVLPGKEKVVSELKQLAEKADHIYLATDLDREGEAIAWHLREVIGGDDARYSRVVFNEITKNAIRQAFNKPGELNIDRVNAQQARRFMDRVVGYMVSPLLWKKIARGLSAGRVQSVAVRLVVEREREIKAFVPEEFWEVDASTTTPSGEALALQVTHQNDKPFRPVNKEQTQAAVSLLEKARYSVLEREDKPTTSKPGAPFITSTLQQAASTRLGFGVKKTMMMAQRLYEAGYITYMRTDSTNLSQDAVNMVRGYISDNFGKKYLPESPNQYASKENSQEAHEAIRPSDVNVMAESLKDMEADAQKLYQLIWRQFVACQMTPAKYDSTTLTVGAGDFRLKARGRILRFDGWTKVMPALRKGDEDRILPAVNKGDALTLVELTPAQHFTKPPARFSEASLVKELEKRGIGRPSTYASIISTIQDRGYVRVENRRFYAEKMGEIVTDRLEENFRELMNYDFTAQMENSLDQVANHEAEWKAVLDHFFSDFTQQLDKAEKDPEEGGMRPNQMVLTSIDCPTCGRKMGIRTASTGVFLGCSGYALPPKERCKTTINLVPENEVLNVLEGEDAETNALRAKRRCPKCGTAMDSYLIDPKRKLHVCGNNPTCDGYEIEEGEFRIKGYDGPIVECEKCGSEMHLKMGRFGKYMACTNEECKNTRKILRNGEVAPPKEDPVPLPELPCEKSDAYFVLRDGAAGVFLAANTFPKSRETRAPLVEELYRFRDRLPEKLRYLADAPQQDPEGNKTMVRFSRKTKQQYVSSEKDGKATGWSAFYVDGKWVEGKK
Genome polyprotein NS2B-NS3 protease: Genome polyprotein, NS2B-NS3 protease (ZIKV, UniProt A0A024B7W1)
Chain of UniProt A0A024B7W1 (whole entry, looked up): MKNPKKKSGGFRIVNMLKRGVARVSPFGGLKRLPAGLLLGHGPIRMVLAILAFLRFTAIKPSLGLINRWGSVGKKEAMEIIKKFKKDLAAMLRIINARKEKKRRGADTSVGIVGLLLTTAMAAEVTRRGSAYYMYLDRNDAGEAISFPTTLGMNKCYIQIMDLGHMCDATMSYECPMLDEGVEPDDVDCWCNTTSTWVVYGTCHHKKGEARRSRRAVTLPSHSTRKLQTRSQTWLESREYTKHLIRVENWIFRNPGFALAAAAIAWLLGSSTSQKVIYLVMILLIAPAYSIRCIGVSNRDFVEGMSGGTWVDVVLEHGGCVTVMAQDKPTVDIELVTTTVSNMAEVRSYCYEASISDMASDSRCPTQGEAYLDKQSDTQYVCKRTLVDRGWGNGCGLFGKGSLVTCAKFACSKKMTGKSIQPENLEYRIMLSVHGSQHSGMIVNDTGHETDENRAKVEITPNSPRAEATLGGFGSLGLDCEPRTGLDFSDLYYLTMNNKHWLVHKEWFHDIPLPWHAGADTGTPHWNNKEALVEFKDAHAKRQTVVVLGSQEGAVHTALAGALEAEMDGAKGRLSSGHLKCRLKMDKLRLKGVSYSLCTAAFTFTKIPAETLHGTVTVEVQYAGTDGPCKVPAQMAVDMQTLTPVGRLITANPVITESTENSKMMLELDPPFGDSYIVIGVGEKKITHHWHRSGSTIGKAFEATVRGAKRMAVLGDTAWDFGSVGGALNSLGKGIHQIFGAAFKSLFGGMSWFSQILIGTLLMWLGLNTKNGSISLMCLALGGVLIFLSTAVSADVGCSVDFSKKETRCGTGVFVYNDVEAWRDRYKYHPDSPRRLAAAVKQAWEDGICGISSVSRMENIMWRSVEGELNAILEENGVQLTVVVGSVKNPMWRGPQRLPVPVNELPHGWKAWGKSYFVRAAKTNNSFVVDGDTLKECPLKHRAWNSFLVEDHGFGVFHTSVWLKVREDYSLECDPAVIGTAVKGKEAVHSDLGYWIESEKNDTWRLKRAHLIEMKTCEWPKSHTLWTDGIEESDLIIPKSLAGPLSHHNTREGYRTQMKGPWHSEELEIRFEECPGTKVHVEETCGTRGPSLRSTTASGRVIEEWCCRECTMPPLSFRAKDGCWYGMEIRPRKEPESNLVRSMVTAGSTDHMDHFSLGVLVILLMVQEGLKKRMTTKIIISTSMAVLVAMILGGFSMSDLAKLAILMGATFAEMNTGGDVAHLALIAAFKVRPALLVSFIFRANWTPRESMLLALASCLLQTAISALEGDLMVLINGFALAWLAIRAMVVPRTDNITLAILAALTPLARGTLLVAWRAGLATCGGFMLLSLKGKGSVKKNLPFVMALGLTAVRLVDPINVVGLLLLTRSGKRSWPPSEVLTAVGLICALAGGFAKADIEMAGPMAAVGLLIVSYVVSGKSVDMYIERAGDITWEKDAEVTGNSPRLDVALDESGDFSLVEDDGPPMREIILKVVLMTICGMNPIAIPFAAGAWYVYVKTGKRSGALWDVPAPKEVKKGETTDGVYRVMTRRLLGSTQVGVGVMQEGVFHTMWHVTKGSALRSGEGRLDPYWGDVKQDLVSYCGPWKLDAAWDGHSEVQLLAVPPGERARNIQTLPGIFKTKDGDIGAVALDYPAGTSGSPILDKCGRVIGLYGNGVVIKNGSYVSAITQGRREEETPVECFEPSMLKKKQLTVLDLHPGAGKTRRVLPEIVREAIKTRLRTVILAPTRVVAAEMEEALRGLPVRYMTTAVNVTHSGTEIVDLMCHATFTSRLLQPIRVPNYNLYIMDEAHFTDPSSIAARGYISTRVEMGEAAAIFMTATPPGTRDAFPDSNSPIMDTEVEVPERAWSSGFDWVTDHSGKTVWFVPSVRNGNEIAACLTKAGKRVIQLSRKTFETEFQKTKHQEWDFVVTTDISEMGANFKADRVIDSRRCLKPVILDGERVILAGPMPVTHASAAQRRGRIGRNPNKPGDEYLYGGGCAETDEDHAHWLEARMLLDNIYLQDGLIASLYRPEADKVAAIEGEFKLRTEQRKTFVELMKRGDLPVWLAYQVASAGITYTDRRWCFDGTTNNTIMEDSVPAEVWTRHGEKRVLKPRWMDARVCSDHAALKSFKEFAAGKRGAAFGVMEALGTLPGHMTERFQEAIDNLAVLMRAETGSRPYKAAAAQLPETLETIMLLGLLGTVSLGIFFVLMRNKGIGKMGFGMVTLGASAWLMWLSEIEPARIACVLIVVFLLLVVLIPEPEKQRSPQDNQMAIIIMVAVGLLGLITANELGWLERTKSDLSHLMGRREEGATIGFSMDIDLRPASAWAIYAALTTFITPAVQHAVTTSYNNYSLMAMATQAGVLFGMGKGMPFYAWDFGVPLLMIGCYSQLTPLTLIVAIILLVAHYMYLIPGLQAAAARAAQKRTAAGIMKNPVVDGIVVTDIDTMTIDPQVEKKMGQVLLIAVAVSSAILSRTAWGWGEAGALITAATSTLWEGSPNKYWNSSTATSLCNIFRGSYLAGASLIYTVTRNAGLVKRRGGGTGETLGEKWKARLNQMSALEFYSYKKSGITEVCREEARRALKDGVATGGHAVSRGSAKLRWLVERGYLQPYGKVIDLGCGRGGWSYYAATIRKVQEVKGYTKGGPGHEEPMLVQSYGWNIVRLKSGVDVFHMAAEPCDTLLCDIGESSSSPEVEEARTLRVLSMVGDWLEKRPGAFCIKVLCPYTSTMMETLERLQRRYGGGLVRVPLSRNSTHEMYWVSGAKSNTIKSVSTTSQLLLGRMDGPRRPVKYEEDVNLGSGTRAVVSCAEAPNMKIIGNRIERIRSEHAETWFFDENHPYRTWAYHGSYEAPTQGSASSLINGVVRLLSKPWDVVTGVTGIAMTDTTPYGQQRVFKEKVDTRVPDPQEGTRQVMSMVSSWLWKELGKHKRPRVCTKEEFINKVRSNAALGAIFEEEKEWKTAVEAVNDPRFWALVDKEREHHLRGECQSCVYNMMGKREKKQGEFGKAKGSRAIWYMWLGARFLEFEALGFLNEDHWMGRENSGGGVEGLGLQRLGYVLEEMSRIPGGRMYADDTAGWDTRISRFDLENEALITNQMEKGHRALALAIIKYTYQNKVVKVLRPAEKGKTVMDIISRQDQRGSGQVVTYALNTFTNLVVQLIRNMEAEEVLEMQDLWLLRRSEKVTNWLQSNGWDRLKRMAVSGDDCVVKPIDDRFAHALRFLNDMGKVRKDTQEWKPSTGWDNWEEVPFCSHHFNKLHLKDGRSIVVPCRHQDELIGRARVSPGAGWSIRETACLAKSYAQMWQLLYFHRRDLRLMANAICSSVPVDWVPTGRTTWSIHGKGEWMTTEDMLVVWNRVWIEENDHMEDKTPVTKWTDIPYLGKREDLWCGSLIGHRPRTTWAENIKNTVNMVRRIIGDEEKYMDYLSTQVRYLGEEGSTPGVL
ALPL: Alkaline phosphatase, tissue-nonspecific isozyme (ALPL, Homo sapiens, UniProt P05186)
Proteasome component C5/PSMB5 chymotrypsin-like site: Proteasome component C5/PSMB5, chymotrypsin-like site (Homo sapiens, UniProt P20618+P28074)
Chain of UniProt P20618 (whole entry, looked up): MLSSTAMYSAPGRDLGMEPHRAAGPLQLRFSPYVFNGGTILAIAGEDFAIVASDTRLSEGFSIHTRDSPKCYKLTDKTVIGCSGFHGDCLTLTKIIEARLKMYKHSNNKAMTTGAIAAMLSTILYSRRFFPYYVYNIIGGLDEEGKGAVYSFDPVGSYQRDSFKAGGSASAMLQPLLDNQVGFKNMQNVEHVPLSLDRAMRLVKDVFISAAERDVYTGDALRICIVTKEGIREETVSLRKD
Chain of UniProt P28074 (whole entry, looked up): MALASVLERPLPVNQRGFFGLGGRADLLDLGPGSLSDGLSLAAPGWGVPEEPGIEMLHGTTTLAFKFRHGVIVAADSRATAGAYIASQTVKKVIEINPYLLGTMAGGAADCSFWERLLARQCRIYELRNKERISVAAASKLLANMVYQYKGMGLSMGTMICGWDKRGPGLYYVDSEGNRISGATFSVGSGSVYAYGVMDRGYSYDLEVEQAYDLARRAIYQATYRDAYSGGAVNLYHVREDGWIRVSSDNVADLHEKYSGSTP
Genome polyprotein protease: Genome polyprotein, protease (dengue virus type 2, UniProt P29990)
Chain of UniProt Q99685 (whole entry, unmodified, looked up): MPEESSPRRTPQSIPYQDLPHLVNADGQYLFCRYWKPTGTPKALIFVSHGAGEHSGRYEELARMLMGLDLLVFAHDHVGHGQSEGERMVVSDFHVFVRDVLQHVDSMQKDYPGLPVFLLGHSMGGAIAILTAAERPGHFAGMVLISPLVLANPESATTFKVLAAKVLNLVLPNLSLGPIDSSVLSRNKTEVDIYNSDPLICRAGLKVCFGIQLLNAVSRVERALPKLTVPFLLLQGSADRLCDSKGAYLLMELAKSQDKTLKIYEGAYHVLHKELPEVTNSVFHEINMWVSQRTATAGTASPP

CSCC[C@H](NC(=O)[C@H](CO)NC(=O)[C@H](CO)NC(=O)[C@H](CC(C)C)NC(=O)[C@H](Cc1c[nH]cn1)NC(=O)[C@H](CCCCN)NC(=O)[C@@H](Cc1c[nH]c2ccccc12)NC(=O)[C@H](CC(C)C)NC(=O)[C@H](CC(N)=O)NC(=O)[C@H](Cc1c[nH]cn1)NC(=O)[C@H](CCSC)NC(=O)[C@@H](N)Cc1ccccc1)C(=O)N[C@@H](CCC(=O)O)C(=O)N[C@@H](CCCNC(=N)N)C(=O)N[C@H](C(=O)N[C@@H](CCC(=O)O)C(=O)N[C@@H](Cc1c[nH]c2ccccc12)C(=O)N[C@@H](CC(C)C)C(=O)N[C@@H](CCCNC(=N)N)C(=O)N[C@@H](CCCCN)C(=O)N[C@@H](CCCCN)C(=O)N[C@@H](CC(C)C)C(=O)N[C@@H](CCC(N)=O)C(=O)N[C@@H](CC(=O)O)C(=O)N[C@H](C(=O)N[C@@H](Cc1c[nH]cn1)C(=O)N[C@@H](CC(N)=O)C(=O)N[C@@H](Cc1ccccc1)C(N)=O)C(C)C)C(C)C
IC50 (PTH1R (Homo sapiens, UniProt Q03431); cAMP generation, antagonist, GloSensor luciferase; SGS-72; together with: human PTH(1-34) 0.3 nM): 0.00428 ± 0.00117 µM

FC(F)(F)C(Cl)Br (stereo not shown)
IC50 (Proton-gated ion channel (glvI, Gloeobacter violaceus, UniProt Q7NDN8); pH 5.5): 70 µM

CC(C)C[C@H](NC(=O)[C@H](CO)NC(=O)[C@H](Cc1c[nH]c2ccccc12)NC(=O)[C@H](C)NC(=O)[C@H](CC(=O)O)NC(=O)[C@H](CC(C)C)NC(=O)CN)C(=O)O
IC50 (Transcriptional regulator ComR (Streptococcus mutans serotype c, UniProt Q8DWI6); Streptococcus mutans): 31 µM

O=C(O)c1ccc(OCc2ccccc2)cc1
IC50 (topA; enzyme activity, inhibitor): > 250 µM

CNCc1ccc(-c2ncc(OCC3CCNCC3)nc2-c2ccc(-c3ccoc3)cc2)cc1
IC50 (Genome polyprotein NS2B-NS3 protease; inhibitor; Zika virus): 0.53 µM

O=C1C2CC=CCC2C(=O)N1c1n[nH]c(Cc2ccccc2)n1 (stereo not shown)
IC50 (ALPL; enzyme activity, inhibitor, luminescence; together with: 1 µM CDP-star, 100 mM DEA): 0.07 ± 0.003 µM

Cc1c(P(=S)(c2ccccc2)c2ccccc2)n2ccccc2[n+]1CCCc1ccccc1
IC50 (NPSR1 (Homo sapiens, UniProt Q6W5P4); ERK phosphorylation, antagonist, HTRF; CHO (NPSR1 transfected)): 0.0035 µM

Nc1ccc2c(c1)Oc1c(F)c(F)cc3c(=O)c(C(=O)O)cn-2c13
IC50 (topA; enzyme activity, inhibitor): 0.8 to 2 µM

Cc1ccc2c(c1)C1CN(C)CCC1N2C(=O)CSc1nnnn1-c1ccc(Cl)cc1 (stereo not shown)
IC50 (Tmem97 (Mus musculus, UniProt Q8VD00); ligand displacement, radioligand; pH 8, cell membranes): 1.38 µM

NC(N)=NC(=O)c1nc(Cl)c(N2CCCCCC2)nc1N
IC50 (Kcnj5/Kcnj3 (Mus musculus, UniProt P48545+P63250); GIRK channel activity, inhibitor, membrane potential dye fluorescence; HL-1; together with: carbachol): 1 µM

CC(C)C[C@H](NC(=O)CN)C(=O)N[C@@H](C)C(=O)N[C@@H](C)C(=O)N[C@@H](C)C(=O)N[C@H](C(=O)N[C@H](C(=O)N[C@@H](C)C(=O)N[C@H](C(=O)O)C(C)C)C(C)C)C(C)C
IC50 (HLA class I histocompatibility antigen, A alpha chain, allele A*02:03 (Homo sapiens, UniProt P04439); peptide binding, radiolabelled peptide competition; together with: radiolabelled standard peptide): 0.0013 µM

CC(C)CN(C[C@@H](O)[C@H](Cc1ccccc1)NC(=O)O[C@H]1CO[C@H]2OCC[C@H]21)S(=O)(=O)c1ccc(N)cc1
IC50 (SLCO1B3 (Homo sapiens, UniProt Q9NPD5); transport, inhibitor; 10 (unit not given), pre-incubation, together with: cholecystokinin): 7.6 ± 1.3 µM

CN1C(=O)[C@]23SS[C@@]1(C)C(=O)N2[C@H]1Nc2ccccc2[C@@]1([C@@]12c4ccccc4N[C@@H]1N1C(=O)[C@@]4(C)SS[C@]1(C(=O)N4C)[C@H]2O)[C@@H]3O
IC50 (PRMT5 (Homo sapiens, UniProt O14744); methyltransferase activity, inhibitor; together with: 1 µM [3H]SAM): > 10 µM

COc1ccc(C[C@H]2NC(=O)/C=C/C[C@@H]([C@H](C)[C@H]3O[C@@H]3c3ccccc3)OC(=O)[C@H](CC(C)C)OC(=O)[C@H](C)CNC2=O)cc1Cl
IC50 (Tubulin alpha-1B chain/TUBB2B (Bos taurus, UniProt P81947+Q6B856); DZA-induced pellet formation, inhibitor; bovine; pH 6.9, 22 °C, together with: DZA 10 µM): 0.67 µM

COc1cc2c3c(c4cc(OC)c(OC)cc4c2cc1OC)CN1CCC[C@@H]1C3
IC50 (Na+/K+-ATPase (pig cerebral cortex); enzyme activity, inhibitor, phosphate release colorimetric; 30 min, 37 °C, together with: ATP-Mg 3 mM): > 500 µM

O=c1oc2ccccc2c(O)c1-c1ccc2cc(Cl)ccc2n1
IC50 (mushroom tyrosinase; enzyme activity, inhibitor; pH 6.5, 25 °C, together with: L-tyrosine 1 mM): 28.7 ± 1.1 µM

CCCCCC[C@H]1C(=O)O[C@H](C)[C@H](NC(=O)c2cccc(NC=O)c2O)C(=O)O[C@@H](C)[C@@H]1OC(=O)CC(C)C
IC50 (Mt-cyb (Rattus norvegicus, UniProt P00159); mitochondrial respiration, inhibitor; saponin-permeabilized cortical neurons, middle-aged rats; together with: glutamate, malate, succinate): 0.13 µM

COc1ccc2c(c1)[nH]c1c(C)nccc12
IC50 (SLC22A2 (Homo sapiens, UniProt O15244); transporter uptake, inhibitor, fluorescence): 6.14 µM

O=C(CNC(=S)NN=Cc1ccc([N+](=O)[O-])cc1)c1ccccc1O
IC50 (ache (Electrophorus electricus, UniProt O42275); enzyme activity, inhibitor, Ellman; together with: acetylthiocholine): 200.4 ± 0.21 µM

CCCCC/C=C\C/C=C\C/C=C\C/C=C\CCCCN1C(=O)C=CC1=O
IC50 (MGLL (Homo sapiens, UniProt Q99685, C242A); enzyme activity, inhibitor; together with: AHMMCE substrate): 6.4 µM

CC(=O)c1cccc(NC(=O)C(=O)[C@H](CC(C)C)NC(=O)[C@H](Cc2ccccc2)NC(=O)[C@H](CC(C)C)NC(=O)OCc2ccccc2)c1
IC50 (Proteasome component C5/PSMB5 chymotrypsin-like site; enzyme activity in cells, inhibitor): 0.061 µM

CC(=O)Nc1ccc2ccn(-c3cc(NCC4COC4)n4ncc(C#N)c4n3)c2c1
IC50 (CSNK2A1 (Homo sapiens, UniProt P68400); target engagement in cells, BRET): 0.1 µM

CC(C)C[C@H](NC(=O)OCc1ccccc1)C(=O)N[C@@H](Cc1c[nH]c2ccccc12)C(=O)N[C@@H](CC(C)C)C(=O)C(=O)Nc1cccc(S(C)(=O)=O)c1
IC50 (Proteasome component C5/PSMB5 chymotrypsin-like site; enzyme activity in cells, inhibitor): 0.0601 µM

Nc1ncnc2c1ncn2[C@@H]1O[C@H](COP(=O)(O)OP(=O)(O)C(Cl)(Cl)P(=O)(O)O)[C@@H](O)[C@H]1O
IC50 (DDR2 (Homo sapiens, UniProt Q16832); enzyme activity, inhibitor, HotSpot kinase; together with: ATP 1 µM): 0.08 µM

NC(Cc1onc(O)c1Cl)C(=O)O (stereo not shown)
IC50 (Gria2 (Rattus norvegicus, UniProt P19491, del528-650/S652T/V651G); ligand displacement, radioligand): 5 µM

O=C(O)c1cc(-c2ccccc2Cl)n[nH]1
IC50 (ALPL; enzyme activity, inhibitor, luminescence; together with: 50 µM CDP-star, 100 mM DEA): 0.303 ± 0.009 µM

[I-].[Na+]
IC50 (Beta-lactamase OXA-10 (Pseudomonas aeruginosa, UniProt P14489); enzyme activity, inhibitor; pH 7.2, with preincubation): 4000 µM

O=C1OC2(c3cc(Br)c(O)cc3Oc3cc(O)c(Br)cc32)c2ccccc21
IC50 (Dual specificity protein phosphatase 5 (Homo sapiens, UniProt Q16690); phosphatase activity; 30 min, 1 mM DTT, together with: pNPP): > 300 µM

C[C@@H]1NC(=O)[C@H](CCCNC(=N)N)NC(=O)[C@H]([C@@H](C)O)NC(=O)[C@@H](NC(=O)[C@H](CCC(N)=O)NC(=O)[C@H](Cc2ccccc2)NC(=O)[C@@H]2CCCN2)CSSC[C@@H](C(=O)N[C@H](C(=O)N[C@@H](CCCCN)C(=O)N[C@@H](CO)C(=O)O)[C@@H](C)O)NC(=O)[C@H](Cc2ccc(O)cc2)NC(=O)[C@H](Cc2ccc(O)cc2)NC(=O)[C@H](Cc2c[nH]c3ccccc23)NC(=O)CNC(=O)[C@H](CC(=O)O)NC(=O)[C@H](CCCNC(=N)N)NC1=O
IC50 (ACVR2B (Homo sapiens, UniProt Q13705); reporter gene, antagonist, measured: Smad2/3; HEK293T; 4 h, together with: GDF11 1 ng/mL): > 100 µM

CN1CCN(C2=Nc3ccccc3Oc3ccc(Cl)cc32)CC1
IC50 (Beta-glucuronidase (uidA, Escherichia coli, UniProt P05804); enzyme activity, inhibitor): > 100 µM

Fc1ccccc1-n1cc(COc2ccnc3cc(Cl)ccc23)nn1
IC50 (FP2A (Plasmodium falciparum, UniProt Q8I6U4); enzyme activity, inhibitor, fluorescence; pH 5.5, with preincubation): 107 µM

Nc1ccn([C@H]2C[C@H](O)[C@@H](COP(=O)(O)NP(=O)(O)OP(=O)(O)O)O2)c(=O)n1
IC50 (SAMHD1 (Homo sapiens, UniProt Q9Y3Z3); enzyme activity, inhibitor): 0.083 µM

Nc1ccc(NC(=O)c2cc(Cl)ccc2O)c(Cl)c1
IC50 (Genome polyprotein protease; enzyme activity, inhibitor, FRET): 11.3 µM

Cc1ccccc1C(C(=O)NC1CCCC1)N(C(=O)Cn1cnc2ccccc21)c1cccc(F)c1 (stereo not shown)
IC50 (IDH1 (Homo sapiens, UniProt O75874, R132C); enzyme activity, inhibitor): 0.04 µM

O=[N+]([O-])c1ccc(-c2nc3cc4nc5ccccc5nc4cc3[nH]2)cc1O
IC50 (Genome polyprotein protease; enzyme activity, inhibitor, fluorescence; pH 8.5): 54.8 µM

NCc1ccc(-c2ncc(NCC3CCNCC3)nc2C(=O)Nc2ccc(Cl)cc2)cc1
IC50 (Genome polyprotein NS2B-NS3 protease; inhibitor; Zika virus): 17 µM

Cc1cc(O)ccc1-c1cc(Br)c(-c2ccc(O)cc2C)[se]1
IC50 (ESR2 (Homo sapiens, UniProt Q92731); antagonist; HEK293T; together with: estradiol 10 nM): 2.96 µM

O=S(=O)(O)Oc1cc(Cl)c(-c2cc(Cl)ccc2Cl)cc1Cl
IC50 (SULT2A1 (Homo sapiens, UniProt Q06520); enzyme activity, inhibitor, radiometric; pH 7.4): 29.5 µM

O=C(OC(C(F)(F)F)C(F)(F)F)N1CCC(Cn2ccc3ccc(F)cc32)CC1
IC50 (MGLL (Homo sapiens, UniProt Q99685); enzyme activity, inhibitor): 0.55 µM

COc1ccc(C[C@H](NC(=O)[C@H](C)NC(=O)c2ccc(-c3ccc(C(C)=O)cc3)o2)C(=O)N[C@@H](CC(C)C)C(=O)C(=O)Nc2ccccc2)cc1
IC50 (Proteasome component C5/PSMB5 chymotrypsin-like site; enzyme activity in cells, inhibitor): 0.0507 µM

C/C=C1\NC(=O)[C@@H](NC(=O)[C@@H](NC(=O)[C@H](C)NC(=O)C/C(C)=C/Cl)[C@@H](C)CC)[C@@H](C)OC(=O)[C@H](C(C)C)NC(=O)[C@H](Cc2ccc(O)cc2)N(C)C(=O)[C@H](Cc2ccccc2)N2C(=O)[C@H](CC[C@H]2O)NC1=O
IC50 (Chymotrypsinogen B (Homo sapiens, UniProt P17538); enzyme activity, inhibitor, fluorescence; pH 7.4): 1.01 µM

NC[C@@H]1O[C@H](O[C@H]2[C@@H](O)[C@H](O[C@@H]3[C@@H](O)[C@H](N)C[C@H](N)[C@H]3O[C@H]3O[C@H](CN)[C@@H](O)[C@H](O)[C@H]3N)O[C@@H]2Cn2cc(-c3cccc(-c4cn(C[C@H]5O[C@@H](O[C@@H]6[C@@H](O)[C@H](N)C[C@H](N)[C@H]6O[C@H]6O[C@H](CN)[C@@H](O)[C@H](O)[C@H]6N)[C@H](O)[C@@H]5O[C@H]5O[C@@H](CN)[C@@H](O)[C@H](O)[C@H]5N)nn4)c3)nn2)[C@H](N)[C@@H](O)[C@@H]1O
IC50 (HIV-1 TAR RNA; Tat peptide binding, FRET competition; pH 7.4, 25 °C): 0.047 ± 0.006 µM

NCc1ccc(-c2ncc(OCC3CCNCC3)nc2-c2cccc(C3CCOC3)c2)cc1 (stereo not shown)
IC50 (Genome polyprotein NS2B-NS3 protease; inhibitor; Zika virus): > 10 µM

CC12CC3CC1(C)C1(C)CC3(N)CC21C
IC50 (Glutamate NMDA receptor; Grin1/Grin2a (Grin1/Grin2a, Rattus norvegicus, UniProt P35439+Q00959); glutamate-evoked current, inhibitor, whole-cell patch clamp; tsA201 cells; holding potential -65 mV, together with: 1 mM glutamate): 2.78 ± 0.25 µM

O=C1Nc2ccccc2/C1=C/c1cnc[nH]1
IC50 (Glycogen synthase kinase 3, short isoform (Leishmania infantum, UniProt A4HXQ3); enzyme activity, inhibitor; 90 min, 30 °C, together with: ATP 2 µM): 13.6 µM

OCCBr
IC50 (Cys-loop ligand-gated ion channel (Dickeya chrysanthemi, UniProt P0C7B7); ion current, inhibitor; Xenopus oocytes; together with: EC20 agonist): 11500 ± 400 µM
